Assay results of several laboratories.
Numbers after ± are the reported error.
SLC10A1: Hepatic sodium/bile acid cotransporter (SLC10A1, Homo sapiens, UniProt Q14973)
UniProt Q14973, sequence (whole entry, looked up): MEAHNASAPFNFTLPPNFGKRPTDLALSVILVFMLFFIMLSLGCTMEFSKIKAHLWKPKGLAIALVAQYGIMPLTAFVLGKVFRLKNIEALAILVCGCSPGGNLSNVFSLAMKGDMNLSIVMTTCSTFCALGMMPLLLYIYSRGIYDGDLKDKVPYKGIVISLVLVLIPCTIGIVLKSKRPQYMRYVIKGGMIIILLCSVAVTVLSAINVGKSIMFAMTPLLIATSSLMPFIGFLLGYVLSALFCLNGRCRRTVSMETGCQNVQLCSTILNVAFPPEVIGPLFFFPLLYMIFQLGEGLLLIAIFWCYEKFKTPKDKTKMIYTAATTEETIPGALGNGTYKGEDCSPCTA
ESR1: Estrogen receptor (ESR1, Homo sapiens, UniProt P03372)
UniProt P03372, sequence (whole entry, looked up): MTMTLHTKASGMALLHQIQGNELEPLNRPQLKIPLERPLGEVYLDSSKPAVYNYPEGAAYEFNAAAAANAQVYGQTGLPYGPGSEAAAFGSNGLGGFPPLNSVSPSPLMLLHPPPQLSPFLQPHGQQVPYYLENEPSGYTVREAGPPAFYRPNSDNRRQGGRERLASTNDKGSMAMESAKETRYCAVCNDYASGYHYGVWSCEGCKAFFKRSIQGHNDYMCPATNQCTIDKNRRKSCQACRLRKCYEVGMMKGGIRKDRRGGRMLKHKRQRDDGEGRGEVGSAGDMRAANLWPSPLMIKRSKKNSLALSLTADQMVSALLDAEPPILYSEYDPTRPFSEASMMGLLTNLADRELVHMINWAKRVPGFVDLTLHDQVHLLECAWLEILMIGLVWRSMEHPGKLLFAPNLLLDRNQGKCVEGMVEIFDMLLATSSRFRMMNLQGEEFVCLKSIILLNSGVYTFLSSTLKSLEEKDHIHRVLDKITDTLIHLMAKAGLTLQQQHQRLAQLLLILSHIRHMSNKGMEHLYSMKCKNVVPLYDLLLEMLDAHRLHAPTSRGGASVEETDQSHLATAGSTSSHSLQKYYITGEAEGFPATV
DRD3: D(3) dopamine receptor (DRD3, Homo sapiens, UniProt P35462)
UniProt P35462, sequence (whole entry, looked up): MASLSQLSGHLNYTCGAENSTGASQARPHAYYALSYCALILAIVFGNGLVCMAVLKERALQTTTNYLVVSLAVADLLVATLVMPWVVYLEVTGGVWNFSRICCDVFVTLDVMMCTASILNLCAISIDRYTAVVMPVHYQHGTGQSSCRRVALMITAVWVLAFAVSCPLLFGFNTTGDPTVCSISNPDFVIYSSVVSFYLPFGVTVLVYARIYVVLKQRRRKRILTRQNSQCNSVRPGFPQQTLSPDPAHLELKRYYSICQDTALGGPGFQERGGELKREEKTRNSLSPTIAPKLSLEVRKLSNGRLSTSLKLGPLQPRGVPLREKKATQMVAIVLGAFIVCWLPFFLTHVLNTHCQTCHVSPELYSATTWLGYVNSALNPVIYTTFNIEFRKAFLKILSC
CDK2 with cyclin A: Cyclin-dependent kinase 2, with cyclin A (CDK2, Homo sapiens, UniProt P24941)
CDK2: Cyclin-dependent kinase 2 (CDK2, Homo sapiens, UniProt P24941)

SMILES	target	test	system	conditions	quantity	result
COc1ccc([C@@H]2Sc3ccccc3N(CCN(C)C)C(=O)[C@@H]2OC(C)=O)cc1	SLC10A1	taurocholate uptake, inhibitor	NTCP-expressing HEK293	together with: 10 µM taurocholate	Ki	460 ± 232 µM
Oc1cc(O)c2c(c1)O[C@H](c1cc(O)c(O)c(O)c1)[C@@H](O)C2	ESR1	array formation, agonist	ERα-GFP PRL-HeLa	1 h	EC50	6.7 µM
CCN(CC)C(=O)c1c(C)[nH]c(C)c1S(=O)(=O)Nc1ccc(C(F)(F)F)c(Cl)c1	DRD3	β-arrestin recruitment, antagonist, PathHunter	–	together with: dopamine EC80	IC50	> 100 µM
CC(=O)N1CCN(c2ccc(OCC3COC(Cn4ccnc4)(c4ccc(Cl)cc4Cl)O3)cc2)CC1 (stereo not drawn)	SLC10A1	taurocholate uptake, inhibitor	NTCP-expressing HEK293	together with: 10 µM taurocholate	Ki	98.8 ± 12 µM
COc1cc(OC)c(NC(=O)CSc2nnc(-c3ccncc3)n2C)cc1Cl	CDK2 with cyclin A	–	–	–	Kd	> 100 µM
Oc1ccc2c(c1)OC[C@]1(O)Cc3cc(O)c(O)cc3[C@H]21	ESR1	array formation, agonist	ERα-GFP PRL-HeLa	1 h	EC50	5.89 µM
CC(=O)N=S(=O)(O)c1ccc(N/C=C2\C(=O)Nc3ccc4ncsc4c32)cc1	CDK2	average of ITC, Octet and Thermofluor	–	untagged protein	Kd	1.43 µM
NC(=O)N1c2ccccc2C=Cc2ccccc21	SLC10A1	taurocholate uptake, inhibitor	NTCP-expressing HEK293	together with: 10 µM taurocholate	Ki	914 ± 726 µM
Cc1nonc1OCCNc1cc(N2CCOCC2)ccc1[N+](=O)[O-]	CDK2	binding	–	–	Kd	> 100 µM
COc1ccc(-c2oc3c(CC=C(C)C)c(O[C@@H]4O[C@H](CO)[C@@H](O)[C@H](O)[C@H]4O)cc(O)c3c(=O)c2O)cc1	ESR1	array formation, agonist	ERα-GFP PRL-HeLa	1 h	EC50	1.17 µM
CC(=O)Nc1cccc(-c2nnc(SCC(=O)Nc3ccc(C(C)=O)cc3)n2C)c1	CDK2	binding	–	–	Kd	> 100 µM
COC(=O)C1=C(C)NC(C)=C(C(=O)OC(C)C)C1c1cccc2nonc12 (stereo not drawn)	SLC10A1	taurocholate uptake, inhibitor	NTCP-expressing HEK293	together with: 10 µM taurocholate	Ki	99.5 ± 14 µM
Cc1[nH]c(C)c(S(=O)(=O)Nc2c(Cl)ccc(Cl)c2Cl)c1C(=O)N1CCC(F)(F)C1	DRD3	β-arrestin recruitment, antagonist, PathHunter	–	together with: dopamine EC80	IC50	> 100 µM
COC(=O)c1ccccc1NC(=O)CSc1nnc(-c2ccc(OC)cc2)n1C	CDK2 with cyclin A	–	–	–	Kd	> 100 µM
C=CCN(CC=C)C(=O)c1c(C)[nH]c(C)c1S(=O)(=O)Nc1ccc(C(F)(F)F)c(Cl)c1	DRD3	β-arrestin recruitment, antagonist, PathHunter	–	together with: dopamine EC80	IC50	> 100 µM
Nc1nc(NC2CC2)c2ncn([C@H]3C=C[C@@H](CO)C3)c2n1	SLC10A1	taurocholate uptake, inhibitor	NTCP-expressing HEK293	together with: 10 µM taurocholate	Ki	1290 ± 4140 µM
Cc1[nH]c(C)c(S(=O)(=O)Nc2ccc(C(F)(F)F)c(Cl)c2)c1C(=O)N1CCC(F)(F)C1	DRD3	β-arrestin recruitment, allosteric modulator, operational model of allostery	–	together with: pramipexole	Kb	0.37 µM
COc1ccc2c(C)nc(Nc3nc(C)cc(O)n3)nc2c1	CDK2	binding	–	–	Kd	> 100 µM
Cc1[nH]c(C)c(S(=O)(=O)Nc2ccnc3c(C(F)(F)F)cccc23)c1C(=O)N1CCC(F)(F)C1	DRD3	Go activation, antagonist, BRET	–	together with: dopamine	IC50	> 100 µM
COc1cc(-c2nnc(SCC(N)=O)n2C)cc(OC)c1OC	CDK2 with cyclin A	–	–	–	Kd	> 100 µM
Cc1ccc(S(=O)(=O)Nc2c(C)[nH]c(C)c2C(=O)N2CCC(F)(F)C2)cc1	DRD3	Go activation, antagonist, BRET	–	together with: dopamine	IC50	> 100 µM
CC[C@H](C)C(=O)O[C@H]1C[C@@H](C)C=C2C=C[C@H](C)[C@H](CC[C@@H]3C[C@@H](O)CC(=O)O3)[C@H]21	SLC10A1	taurocholate uptake, inhibitor	NTCP-expressing HEK293	together with: 10 µM taurocholate	Ki	202 ± 32 µM
CNC(=O)c1c(C)[nH]c(C)c1S(=O)(=O)Nc1ccc(C(F)(F)F)c(Cl)c1	DRD3	β-arrestin recruitment, antagonist, PathHunter	–	together with: dopamine EC80	IC50	> 100 µM
COc1cc(O)c2c(=O)cc(-c3ccc(O)c(O)c3)oc2c1	ESR1	array formation, agonist	ERα-GFP PRL-HeLa	1 h	EC50	0.934 µM

A few entries again:
SMILES	target	test	system	conditions	quantity	result
Nc1nc(NC2CC2)c2ncn([C@H]3C=C[C@@H](CO)C3)c2n1	SLC10A1	taurocholate uptake, inhibitor	NTCP-expressing HEK293	together with: 10 µM taurocholate	Ki	1290 ± 4140 µM
Cc1[nH]c(C)c(S(=O)(=O)Nc2ccc(C(F)(F)F)c(Cl)c2)c1C(=O)N1CCC(F)(F)C1	DRD3	β-arrestin recruitment, allosteric modulator, operational model of allostery	–	together with: pramipexole	Kb	0.37 µM
COc1ccc2c(C)nc(Nc3nc(C)cc(O)n3)nc2c1	CDK2	binding	–	–	Kd	> 100 µM
